Literature values as cited in several papers.
Lines come from different studies, so protocols differ. ± marks the error that the study gave.
Genome polyprotein NS2B-NS3 protease: Genome polyprotein, NS2B-NS3 protease (dengue virus type 2, UniProt P29990)
UGT1A1: UDP-glucuronosyltransferase 1A1 (UGT1A1, Homo sapiens, UniProt P22309)
Sequence of UniProt P22309 (whole entry, looked up): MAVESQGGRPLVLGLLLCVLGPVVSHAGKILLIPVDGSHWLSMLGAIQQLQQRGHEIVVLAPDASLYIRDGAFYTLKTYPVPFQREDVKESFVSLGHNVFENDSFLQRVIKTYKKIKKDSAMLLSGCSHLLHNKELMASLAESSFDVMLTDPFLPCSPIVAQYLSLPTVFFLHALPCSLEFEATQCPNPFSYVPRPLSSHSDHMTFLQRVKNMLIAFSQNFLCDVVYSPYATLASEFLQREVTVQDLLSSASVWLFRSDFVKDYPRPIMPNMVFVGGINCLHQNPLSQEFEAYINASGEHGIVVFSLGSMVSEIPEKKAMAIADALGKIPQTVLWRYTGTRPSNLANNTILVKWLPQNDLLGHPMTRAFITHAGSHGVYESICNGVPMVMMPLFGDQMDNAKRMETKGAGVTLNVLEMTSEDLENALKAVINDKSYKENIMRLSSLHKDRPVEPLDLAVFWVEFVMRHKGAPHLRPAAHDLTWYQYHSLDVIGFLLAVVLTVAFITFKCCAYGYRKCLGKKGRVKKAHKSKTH
Sequence of UniProt P35462 (whole entry, looked up): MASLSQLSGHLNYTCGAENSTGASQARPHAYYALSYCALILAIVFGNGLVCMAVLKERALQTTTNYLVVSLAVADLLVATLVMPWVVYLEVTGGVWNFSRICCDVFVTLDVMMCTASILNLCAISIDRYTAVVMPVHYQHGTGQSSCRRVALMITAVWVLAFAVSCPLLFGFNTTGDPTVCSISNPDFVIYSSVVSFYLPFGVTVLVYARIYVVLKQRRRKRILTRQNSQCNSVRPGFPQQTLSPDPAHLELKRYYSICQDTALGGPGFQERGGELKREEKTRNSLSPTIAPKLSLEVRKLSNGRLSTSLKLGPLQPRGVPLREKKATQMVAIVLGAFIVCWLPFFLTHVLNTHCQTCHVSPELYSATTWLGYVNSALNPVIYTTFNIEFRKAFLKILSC
Sequence of UniProt Q13177 (whole entry, looked up): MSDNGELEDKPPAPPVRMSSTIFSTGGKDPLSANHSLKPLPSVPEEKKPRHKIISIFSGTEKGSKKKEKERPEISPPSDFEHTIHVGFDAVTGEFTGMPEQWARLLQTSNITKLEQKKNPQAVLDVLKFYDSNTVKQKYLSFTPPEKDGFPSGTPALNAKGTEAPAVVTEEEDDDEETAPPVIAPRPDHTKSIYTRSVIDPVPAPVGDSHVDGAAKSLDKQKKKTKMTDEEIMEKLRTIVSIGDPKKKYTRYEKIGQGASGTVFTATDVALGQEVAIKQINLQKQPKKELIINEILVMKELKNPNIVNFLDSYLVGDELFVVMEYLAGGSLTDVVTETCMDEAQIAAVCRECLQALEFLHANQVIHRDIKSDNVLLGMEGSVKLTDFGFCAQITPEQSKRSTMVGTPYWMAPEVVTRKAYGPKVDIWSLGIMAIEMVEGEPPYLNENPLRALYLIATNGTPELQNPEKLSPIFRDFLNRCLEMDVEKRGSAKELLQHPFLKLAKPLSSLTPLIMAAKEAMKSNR
Sequence of UniProt Q8IXJ6 (whole entry, looked up): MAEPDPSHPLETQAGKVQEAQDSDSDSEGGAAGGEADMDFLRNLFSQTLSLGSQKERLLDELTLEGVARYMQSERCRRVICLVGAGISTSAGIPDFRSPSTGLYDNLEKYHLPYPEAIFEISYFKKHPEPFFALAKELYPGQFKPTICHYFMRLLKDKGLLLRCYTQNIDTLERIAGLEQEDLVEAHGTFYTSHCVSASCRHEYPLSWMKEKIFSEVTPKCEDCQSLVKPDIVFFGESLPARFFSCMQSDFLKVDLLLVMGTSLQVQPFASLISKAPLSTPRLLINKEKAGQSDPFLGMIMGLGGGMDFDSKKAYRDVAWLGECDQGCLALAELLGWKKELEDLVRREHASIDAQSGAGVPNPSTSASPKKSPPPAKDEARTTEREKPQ
Sequence of UniProt P08908 (whole entry, looked up): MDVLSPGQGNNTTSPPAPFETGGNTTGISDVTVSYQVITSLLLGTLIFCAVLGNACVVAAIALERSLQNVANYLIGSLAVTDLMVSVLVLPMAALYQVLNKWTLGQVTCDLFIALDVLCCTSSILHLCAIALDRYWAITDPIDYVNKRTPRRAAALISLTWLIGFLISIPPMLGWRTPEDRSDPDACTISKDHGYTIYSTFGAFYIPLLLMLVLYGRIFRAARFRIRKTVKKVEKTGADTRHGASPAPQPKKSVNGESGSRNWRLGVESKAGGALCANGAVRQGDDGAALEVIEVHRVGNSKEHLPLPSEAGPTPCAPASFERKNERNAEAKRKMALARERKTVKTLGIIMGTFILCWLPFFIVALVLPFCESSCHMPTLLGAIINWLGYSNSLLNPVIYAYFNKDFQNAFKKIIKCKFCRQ
Sequence of UniProt Q9GT49 (whole entry, looked up): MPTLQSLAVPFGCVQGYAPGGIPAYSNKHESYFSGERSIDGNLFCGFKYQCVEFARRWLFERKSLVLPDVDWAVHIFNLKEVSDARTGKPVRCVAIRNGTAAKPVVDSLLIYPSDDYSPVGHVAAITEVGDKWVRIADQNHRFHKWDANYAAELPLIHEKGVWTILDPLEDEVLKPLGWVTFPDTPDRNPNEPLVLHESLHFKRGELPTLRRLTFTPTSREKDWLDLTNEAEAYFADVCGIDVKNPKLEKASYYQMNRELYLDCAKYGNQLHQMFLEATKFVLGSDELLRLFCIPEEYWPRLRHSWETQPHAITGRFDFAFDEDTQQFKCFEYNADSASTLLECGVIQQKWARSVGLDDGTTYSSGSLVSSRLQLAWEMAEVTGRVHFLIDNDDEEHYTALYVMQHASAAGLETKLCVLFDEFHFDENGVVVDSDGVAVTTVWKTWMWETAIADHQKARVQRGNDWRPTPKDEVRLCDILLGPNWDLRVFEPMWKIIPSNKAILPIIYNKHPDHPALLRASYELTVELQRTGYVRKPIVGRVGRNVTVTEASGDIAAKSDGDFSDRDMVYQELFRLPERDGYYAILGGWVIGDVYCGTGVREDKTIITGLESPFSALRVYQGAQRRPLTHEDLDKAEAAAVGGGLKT
Sequence of UniProt P40337 (whole entry, unmodified, looked up): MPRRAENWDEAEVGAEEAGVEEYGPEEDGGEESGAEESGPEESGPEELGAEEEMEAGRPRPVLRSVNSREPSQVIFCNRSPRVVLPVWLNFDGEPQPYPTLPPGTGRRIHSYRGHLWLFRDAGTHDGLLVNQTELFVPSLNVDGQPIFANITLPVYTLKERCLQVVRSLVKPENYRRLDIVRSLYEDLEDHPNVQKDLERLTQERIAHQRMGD
Sequence of UniProt O60331 (whole entry, looked up): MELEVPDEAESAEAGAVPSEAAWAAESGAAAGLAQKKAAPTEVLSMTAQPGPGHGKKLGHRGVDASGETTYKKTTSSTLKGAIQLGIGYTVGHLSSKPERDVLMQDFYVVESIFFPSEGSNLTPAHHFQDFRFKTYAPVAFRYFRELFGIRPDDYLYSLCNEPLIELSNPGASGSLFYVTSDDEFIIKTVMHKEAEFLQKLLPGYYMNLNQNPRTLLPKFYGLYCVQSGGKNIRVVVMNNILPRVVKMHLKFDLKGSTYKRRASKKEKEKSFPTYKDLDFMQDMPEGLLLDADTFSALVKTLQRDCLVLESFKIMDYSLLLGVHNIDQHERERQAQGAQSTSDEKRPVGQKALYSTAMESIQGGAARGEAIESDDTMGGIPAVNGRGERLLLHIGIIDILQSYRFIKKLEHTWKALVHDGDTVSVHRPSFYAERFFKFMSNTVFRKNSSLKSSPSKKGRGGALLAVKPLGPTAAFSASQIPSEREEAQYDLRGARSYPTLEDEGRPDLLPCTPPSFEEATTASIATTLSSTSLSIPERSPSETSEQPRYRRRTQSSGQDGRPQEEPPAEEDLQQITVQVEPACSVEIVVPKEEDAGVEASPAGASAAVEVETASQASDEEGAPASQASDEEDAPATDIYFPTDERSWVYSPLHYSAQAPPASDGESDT

Cc1ncsc1-c1ccc(CNC(=O)[C@@H]2C[C@@H](O)CN2C(=O)[C@@H](NC(=O)COCCOCCOCCNC(=O)C[C@@H]2N=C(c3ccc(Cl)cc3)c3c(sc(C)c3C)-n3c(C)nnc32)C(C)(C)C)cc1
ΔH (von Hippel-Lindau disease tumor suppressor, with Elongin B/C (VHL, Homo sapiens, UniProt P40337); isothermal titration calorimetry; VCB titrated into compound): -7.7 kcal/mol

Cc1nc(-c2ccncc2)sc1C(=O)NC(C(=O)Nc1cccc(C(N)=O)c1)c1ccc(OCc2ccccc2)cc1 (centres unmarked)
inhibition (Genome polyprotein NS2B-NS3 protease; DENV-2 protease cell reporter; HeLa; 12.5 µM): 78%

O=c1ccc(OCCCN2CCCCC2)nn1-c1ccc(Cl)c(Cl)c1
inhibition (5-hydroxytryptamine receptor 1A (HTR1A, Homo sapiens, UniProt P08908); 1.0 µM): 30.8 ± 4.1%

O=P(O)(O)O[C@@H]1[C@H](O)[C@H](O)[C@@H](OP(=O)(O)O)[C@H](OP(=O)(O)O)[C@H]1O
Km (INPP5B; enzyme activity, malachite green): 55 ± 22 µM

Cc1cc(-c2cc(Cl)ccc2OCCn2c(C)nc3cc(C(F)(F)F)cc(C#N)c3c2=O)c2scc(C(=O)NS(C)(=O)=O)c2n1
activity (eIF4E cap-binding site; fluorescence polarization): 30 nM

CNC(=S)NCCCC[C@H](NC(=O)OCc1ccccc1)C(=O)N[C@@H](Cc1c[nH]c2ccccc12)C(=O)NC(C)C
inhibition (NAD-dependent protein deacetylase sirtuin-2 (SIRT2, Homo sapiens, UniProt Q8IXJ6); enzyme activity, inhibitor; 10 µM): 74%

COc1cc(-c2cc(=O)c3ccc(OCCCn4c(Cl)nc5ccccc54)cc3o2)cc(OC)c1OC
inhibition (HK-II, PFKP and PDK-1; glycolytic enzyme level; MGC-803; concentration not given): inhibited

CS(=O)(=O)Nc1ccc(-c2cncc(-c3cccc4cc[nH]c34)c2)cc1
remaining activity (Phosphatidylinositol 4-phosphate 5-kinase type-1 gamma (PIP5K1C, Homo sapiens, UniProt O60331); inhibitor; 1 µM; reference: control): < 30%

O=C(O)C1OC(Oc2c(-c3ccccc3)oc3cc(O)ccc3c2=O)C(O)C(O)C1O (centres unmarked)
Vmax (UGT1A1; glucuronidation, substrate; Supersomes): 1.02 ± 0.34 nmol/mg/min

COc1ccc(Nc2nc(Nc3ccc(OCC[18F])cc3)ncc2Br)cc1
tissue uptake (S180 tumour-bearing mice, bone; intravenous, 5 min): 1.88 ± 0.13 %ID/g

O=C(O)C1OC(Oc2c(-c3ccc(O)cc3)oc3cc(O)ccc3c2=O)C(O)C(O)C1O (centres unmarked)
Vmax (UGT1A1; glucuronidation, substrate; Supersomes): 0.68 ± 0.05 nmol/mg/min

Cc1ncsc1-c1ccc2c(c1)OCCOCCOC[C@@H](NC(=O)C[C@@H]1N=C(c3ccc(Cl)cc3)c3c(sc(C)c3C)-n3c(C)nnc31)COCCOCCOCC(=O)N[C@@H](C(C)(C)C)C(=O)N1C[C@H](O)C[C@H]1C(=O)NC2
ΔH (Bromodomain-containing protein 4, BD2 (BRD4, Homo sapiens, UniProt O60885); isothermal titration calorimetry; BRD4 titrated into compound): -6.25 kcal/mol

CNCCNC(=O)CN1C(=O)Cc2c([nH]c3ccc(Br)cc23)-c2ccc(Cl)cc21
inhibition (Trypanothione synthetase (Trypanosoma cruzi, UniProt Q9GT49); enzyme activity; 30 µM): 40.5 ± 5.9%

CCC1C=C(C)C(O)C(C)CC(OC)C2OC(O)(C(=O)C(=O)N3CCCCC3C(=O)OC(C(C)=CC3CCC(O)C(OC)C3)C(C)C(O)CC1=O)C(C)CC2OC (centres unmarked)
phosphatase activity (calcineurin; concentration not given): no effect

O=C(O)C1OC(Oc2c(-c3ccc(O)cc3)oc3ccc(O)cc3c2=O)C(O)C(O)C1O (centres unmarked)
Vmax (UGT1A1; glucuronidation, substrate; Supersomes): 0.34 ± 0.05 nmol/mg/min

CC(C)c1ccccc1-c1nc(NCc2ccccn2)c2c(ccn2C)n1
remaining activity (Serine/threonine-protein kinase PAK 2 (PAK2, Homo sapiens, UniProt Q13177); inhibitor; 10 µM): < 50%

O=C(O)C1OC(Oc2ccc3c(=O)c(O)c(-c4ccccc4)oc3c2)C(O)C(O)C1O (centres unmarked)
Vmax (UGT1A1; glucuronidation, substrate; Supersomes): 3.04 ± 0.42 nmol/mg/min

Cc1onc(-c2ccc(F)cc2)c1C(=O)N[C@H](C(=O)Nc1cccc(C(N)=O)c1)c1ccc(OCc2ccccc2)cc1
inhibition (Genome polyprotein NS2B-NS3 protease; DENV-2 protease cell reporter; HeLa; 12.5 µM): 63%

O=C(O)C1OC(Oc2ccc3oc(-c4ccc(O)cc4)c(O)c(=O)c3c2)C(O)C(O)C1O (centres unmarked)
Vmax (UGT1A1; glucuronidation, substrate; Supersomes): 0.12 ± 0.01 nmol/mg/min

Cc1cc(O)c2c(c1O)C(=O)c1cc(O)cc(O)c1C2=O
activation (D(3) dopamine receptor (DRD3, Homo sapiens, UniProt P35462); agonist; 50 µM): 44 ± 4.76%
